Experimental data collected from several papers.
Lines come from different studies, so protocols differ. ± gives the spread as reported.
mrcB: Penicillin-binding protein 1B (mrcB, Escherichia coli K-12, UniProt P02919)
UniProt P02919, sequence (whole entry, looked up): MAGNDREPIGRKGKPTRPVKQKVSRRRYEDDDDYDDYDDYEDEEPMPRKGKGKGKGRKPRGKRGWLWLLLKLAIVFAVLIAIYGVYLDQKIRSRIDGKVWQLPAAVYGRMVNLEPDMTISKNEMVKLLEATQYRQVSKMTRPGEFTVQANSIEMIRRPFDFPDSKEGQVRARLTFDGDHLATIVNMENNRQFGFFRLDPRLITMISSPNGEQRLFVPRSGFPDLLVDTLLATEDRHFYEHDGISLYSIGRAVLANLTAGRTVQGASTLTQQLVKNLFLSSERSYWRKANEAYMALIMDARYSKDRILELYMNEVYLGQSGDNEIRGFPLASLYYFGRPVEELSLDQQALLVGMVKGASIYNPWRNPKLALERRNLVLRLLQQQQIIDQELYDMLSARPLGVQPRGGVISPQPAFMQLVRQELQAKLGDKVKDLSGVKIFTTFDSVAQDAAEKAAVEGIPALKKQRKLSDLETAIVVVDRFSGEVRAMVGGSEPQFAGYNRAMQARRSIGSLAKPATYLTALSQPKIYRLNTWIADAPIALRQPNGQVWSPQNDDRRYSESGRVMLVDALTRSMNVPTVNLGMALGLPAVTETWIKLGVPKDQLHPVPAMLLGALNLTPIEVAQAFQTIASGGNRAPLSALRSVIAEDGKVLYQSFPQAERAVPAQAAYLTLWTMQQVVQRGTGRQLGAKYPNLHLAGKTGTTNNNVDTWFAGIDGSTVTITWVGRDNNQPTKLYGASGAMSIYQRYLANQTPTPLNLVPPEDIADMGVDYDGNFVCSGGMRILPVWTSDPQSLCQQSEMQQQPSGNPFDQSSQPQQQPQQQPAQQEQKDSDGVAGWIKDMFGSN
CDK6 with cyclin D3: Cyclin-dependent kinase 6, with cyclin D3 (CDK6, Homo sapiens, UniProt Q00534)
UniProt Q00534, sequence (whole entry, looked up): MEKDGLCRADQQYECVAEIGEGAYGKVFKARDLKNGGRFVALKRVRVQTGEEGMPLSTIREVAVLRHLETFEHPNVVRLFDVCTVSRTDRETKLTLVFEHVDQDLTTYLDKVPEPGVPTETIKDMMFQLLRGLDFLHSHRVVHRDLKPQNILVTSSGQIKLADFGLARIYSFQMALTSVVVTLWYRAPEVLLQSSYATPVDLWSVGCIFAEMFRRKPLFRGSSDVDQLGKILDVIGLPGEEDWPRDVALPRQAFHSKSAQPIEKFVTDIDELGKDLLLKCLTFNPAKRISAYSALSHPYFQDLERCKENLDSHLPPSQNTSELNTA
Adhesin FmlH lectin domain: Adhesin FmlH, lectin domain (Escherichia coli, UniProt Q1RBS0)
ACE: Angiotensin-converting enzyme (ACE, Homo sapiens, UniProt P12821)
UniProt P12821, sequence (whole entry, looked up): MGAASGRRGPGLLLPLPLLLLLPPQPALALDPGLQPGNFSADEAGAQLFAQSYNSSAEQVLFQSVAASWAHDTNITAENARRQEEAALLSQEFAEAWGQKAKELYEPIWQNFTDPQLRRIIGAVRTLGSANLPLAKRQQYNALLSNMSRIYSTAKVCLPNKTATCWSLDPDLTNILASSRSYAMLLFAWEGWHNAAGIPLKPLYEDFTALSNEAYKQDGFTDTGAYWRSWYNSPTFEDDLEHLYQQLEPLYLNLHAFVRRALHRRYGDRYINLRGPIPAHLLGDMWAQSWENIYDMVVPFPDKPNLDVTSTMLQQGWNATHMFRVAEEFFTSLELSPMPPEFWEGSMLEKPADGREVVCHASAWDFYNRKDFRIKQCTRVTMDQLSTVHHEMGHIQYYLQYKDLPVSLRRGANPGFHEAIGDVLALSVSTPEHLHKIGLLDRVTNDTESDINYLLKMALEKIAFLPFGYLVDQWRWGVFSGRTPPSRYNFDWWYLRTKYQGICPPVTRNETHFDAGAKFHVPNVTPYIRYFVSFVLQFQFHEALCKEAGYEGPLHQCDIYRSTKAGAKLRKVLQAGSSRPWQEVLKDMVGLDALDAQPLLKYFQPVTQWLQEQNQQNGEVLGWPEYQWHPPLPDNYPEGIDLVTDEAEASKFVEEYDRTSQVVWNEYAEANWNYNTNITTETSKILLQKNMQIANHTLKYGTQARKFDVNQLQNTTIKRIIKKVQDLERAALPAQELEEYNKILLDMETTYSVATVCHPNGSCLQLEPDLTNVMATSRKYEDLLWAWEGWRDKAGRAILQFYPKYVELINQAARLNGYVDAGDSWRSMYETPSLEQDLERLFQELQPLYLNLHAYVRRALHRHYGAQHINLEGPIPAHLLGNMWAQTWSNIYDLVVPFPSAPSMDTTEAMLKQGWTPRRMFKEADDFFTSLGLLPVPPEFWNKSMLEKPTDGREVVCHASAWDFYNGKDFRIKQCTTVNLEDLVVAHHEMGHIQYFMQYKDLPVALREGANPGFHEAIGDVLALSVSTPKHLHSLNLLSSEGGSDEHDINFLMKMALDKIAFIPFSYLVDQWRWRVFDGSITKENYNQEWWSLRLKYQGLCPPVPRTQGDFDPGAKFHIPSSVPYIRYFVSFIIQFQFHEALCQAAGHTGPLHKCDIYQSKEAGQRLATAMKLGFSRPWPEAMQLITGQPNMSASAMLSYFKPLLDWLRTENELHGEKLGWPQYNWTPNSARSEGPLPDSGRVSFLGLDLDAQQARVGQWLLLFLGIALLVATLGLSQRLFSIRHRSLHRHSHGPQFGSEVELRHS
UniProt Q9NR19, sequence (whole entry, looked up): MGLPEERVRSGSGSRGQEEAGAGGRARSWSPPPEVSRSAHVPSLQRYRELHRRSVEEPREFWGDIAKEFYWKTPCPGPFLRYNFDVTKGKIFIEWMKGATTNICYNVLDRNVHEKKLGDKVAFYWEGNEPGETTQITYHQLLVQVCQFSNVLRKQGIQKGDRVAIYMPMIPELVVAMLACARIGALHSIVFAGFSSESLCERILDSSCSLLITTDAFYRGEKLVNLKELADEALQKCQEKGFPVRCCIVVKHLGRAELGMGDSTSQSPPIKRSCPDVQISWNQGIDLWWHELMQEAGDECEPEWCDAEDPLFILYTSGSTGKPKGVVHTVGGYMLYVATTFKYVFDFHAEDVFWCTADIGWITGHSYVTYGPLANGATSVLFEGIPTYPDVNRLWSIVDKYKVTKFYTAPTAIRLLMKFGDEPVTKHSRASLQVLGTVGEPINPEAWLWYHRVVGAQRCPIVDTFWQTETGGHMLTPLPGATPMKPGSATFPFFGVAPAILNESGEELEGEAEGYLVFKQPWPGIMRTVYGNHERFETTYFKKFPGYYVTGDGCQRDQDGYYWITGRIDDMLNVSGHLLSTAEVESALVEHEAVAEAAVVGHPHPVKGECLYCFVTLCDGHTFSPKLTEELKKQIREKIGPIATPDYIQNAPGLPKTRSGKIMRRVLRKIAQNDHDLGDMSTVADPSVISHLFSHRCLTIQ
UniProt P00519, sequence (whole entry, looked up): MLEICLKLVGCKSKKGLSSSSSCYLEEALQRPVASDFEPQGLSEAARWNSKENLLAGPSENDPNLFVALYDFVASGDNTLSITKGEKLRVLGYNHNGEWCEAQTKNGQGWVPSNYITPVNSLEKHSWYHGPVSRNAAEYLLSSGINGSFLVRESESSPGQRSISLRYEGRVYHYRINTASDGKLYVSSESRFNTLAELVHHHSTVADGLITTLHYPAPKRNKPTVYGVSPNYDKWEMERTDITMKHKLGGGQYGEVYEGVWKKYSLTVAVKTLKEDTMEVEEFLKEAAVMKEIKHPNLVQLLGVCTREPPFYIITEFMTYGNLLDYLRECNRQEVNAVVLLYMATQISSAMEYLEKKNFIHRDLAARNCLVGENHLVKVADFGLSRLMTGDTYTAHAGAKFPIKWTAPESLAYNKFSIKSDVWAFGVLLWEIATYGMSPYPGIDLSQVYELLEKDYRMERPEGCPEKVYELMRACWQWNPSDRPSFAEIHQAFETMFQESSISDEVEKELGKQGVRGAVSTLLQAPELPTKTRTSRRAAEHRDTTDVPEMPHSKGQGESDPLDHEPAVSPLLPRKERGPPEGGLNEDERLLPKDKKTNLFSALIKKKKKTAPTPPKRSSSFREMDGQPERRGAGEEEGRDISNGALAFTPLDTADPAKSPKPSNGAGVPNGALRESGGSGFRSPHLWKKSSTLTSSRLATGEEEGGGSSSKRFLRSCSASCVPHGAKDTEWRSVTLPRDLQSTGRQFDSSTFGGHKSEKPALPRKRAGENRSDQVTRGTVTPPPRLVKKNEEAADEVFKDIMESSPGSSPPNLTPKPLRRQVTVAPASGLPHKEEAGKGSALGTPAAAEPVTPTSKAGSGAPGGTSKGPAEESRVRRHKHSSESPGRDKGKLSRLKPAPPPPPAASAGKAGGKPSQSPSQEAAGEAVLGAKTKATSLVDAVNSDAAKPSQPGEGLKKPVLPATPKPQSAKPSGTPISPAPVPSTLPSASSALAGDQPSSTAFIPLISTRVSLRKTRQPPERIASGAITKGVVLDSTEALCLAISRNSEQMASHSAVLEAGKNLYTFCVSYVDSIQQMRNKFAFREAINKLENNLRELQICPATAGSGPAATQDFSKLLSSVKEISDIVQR
UniProt Q16644, sequence (whole entry, looked up): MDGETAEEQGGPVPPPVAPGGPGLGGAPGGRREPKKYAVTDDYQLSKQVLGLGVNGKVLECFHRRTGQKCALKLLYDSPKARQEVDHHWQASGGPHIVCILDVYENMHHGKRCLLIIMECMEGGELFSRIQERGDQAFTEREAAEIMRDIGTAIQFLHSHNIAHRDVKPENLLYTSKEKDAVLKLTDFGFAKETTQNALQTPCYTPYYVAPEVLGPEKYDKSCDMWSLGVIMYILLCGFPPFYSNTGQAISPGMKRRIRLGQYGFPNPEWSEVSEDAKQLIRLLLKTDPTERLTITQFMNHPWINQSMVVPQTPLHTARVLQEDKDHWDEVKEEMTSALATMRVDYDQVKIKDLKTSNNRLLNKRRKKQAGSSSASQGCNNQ
UniProt P06730, sequence (whole entry, looked up): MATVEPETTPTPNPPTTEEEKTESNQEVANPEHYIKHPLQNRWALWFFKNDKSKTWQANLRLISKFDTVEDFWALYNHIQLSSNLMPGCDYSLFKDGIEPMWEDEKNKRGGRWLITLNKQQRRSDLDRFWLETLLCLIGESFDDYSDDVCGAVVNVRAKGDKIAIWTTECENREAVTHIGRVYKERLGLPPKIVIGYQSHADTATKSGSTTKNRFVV

| SMILES | target | assay | system | setting | inhibition |
| --- | --- | --- | --- | --- | --- |
| CCCCc1ccc(N2C(=O)/C(=N\NC(=N)N)c3cc([N+](=O)[O-])ccc32)cc1 | mrcB | transglycosylation, inhibitor | Escherichia coli | concentration not given, with: dansyl-lipid II | no inhibition |
| COc1ccc(C(=O)N(O)Cc2ccccc2)cc1OC | Carotenoid cleavage dioxygenase 7, chloroplastic (CCD7, Arabidopsis thaliana, UniProt Q7XJM2) | β-carotene cleavage | Escherichia coli expressing CCD7 | 100 µM, 16 h | inactive |
| CN(Cc1cc(C2CC2)on1)C(=O)c1cccc(-c2ccc3c(c2)CCO3)c1 | Acetyl-coenzyme A synthetase, cytoplasmic (ACSS2, Homo sapiens, UniProt Q9NR19) | enzyme activity |  | concentration not given | inactive |
| CN1CCN(Cc2ccc(-c3ccc(CO[C@H]4CCC[C@@H]4NC(=O)c4cc(-c5cnn(C)c5)cnc4N)cc3)cc2)CC1 | Serine/threonine-protein kinase Chk2 (CHEK2, Homo sapiens, UniProt O96017) | enzyme activity, inhibitor |  | 0.1 µM | 55.2% |
| COCC12C(=O)NC3C4(C(OC)CC1O)C1CC5(O)C(OC)C(O)C(OC(C)=O)(C1C5OC(=O)c1ccccc1)C3(O)C(OC)C24 (centres unmarked) | MAP kinase-activated protein kinase 3 (MAPKAPK3, Homo sapiens, UniProt Q16644) | enzyme activity |  | 25 µM | no inhibition |
| CC(C)Cn1cc(-c2nc(Nc3ccc(OCCCCCCC(=O)NO)cc3)ncc2F)nn1 | CDK6 with cyclin D3 | enzyme activity, inhibitor, TR-FRET |  | 50 nM | 4.99% |
| COC(=O)C1=CNC=C(C(=O)OC)C1c1ccc(F)c(C(F)(F)F)c1 | L-type calcium channel dihydropyridine site (rat) | binding | rat cerebral cortex | 3 µM, with: [3H]nitrendipine | ~45% |
| CC(C)=CCN=C(N)NCCC[C@@H](NC(=O)CCCc1ccc(O)cc1)C(=O)N[C@@H](Cc1ccccc1)C(O)CC(=O)N[C@@H](Cc1ccc(O)cc1)C(=O)O (stereo in doubt) | elastase | enzyme activity |  | up to 100 µM | no inhibition |
| CN(C)C/C=C/C(=O)Nc1ccc(C(=O)N[C@H]2CCC[C@@H](Nc3ncc(Cl)c(-c4c[nH]c5ccccc45)n3)C2)nc1 | Cyclin-dependent kinase 13 (CDK13, Homo sapiens, UniProt Q14004) | KiNativ profiling | A549 cell lysate | 1 µM | > 50% |
| O=C(CCCCCCOc1ccc(Nc2ncc(F)c(-c3cn(C4CCCCC4)nn3)n2)cc1)NO | CDK6 with cyclin D3 | enzyme activity, inhibitor, TR-FRET |  | 5 µM | 1.95% |
| CC(C)C[C@H](NC(=O)[C@@H]1CCCN1C(=O)[C@@H]1CCCN1C(=O)[C@H](CC(N)=O)NC(=O)[C@@H](N)Cc1ccc(Cl)c(Cl)c1)C(=O)N[C@@H](Cc1c[nH]cn1)C(=O)N[C@@H](CO)C(=O)N[C@H](C(=O)N[C@@H](C)C(=O)O)[C@@H](C)OP(=O)(O)O | Serine/threonine-protein kinase PLK4 (PLK4, Homo sapiens, UniProt O00444) | enzyme activity, inhibitor |  | 10 µM | 5.04% |
| CN(C1COC1)C(C)(C)/C=C(\C#N)C(=O)N1CCC[C@H]1Cn1nc(-c2ccc(Oc3ccccc3)cc2F)c2c(N)ncnc21 | Tyrosine-protein kinase BTK (BTK, Homo sapiens, UniProt Q06187) |  |  | 1 µM, mean | > 90% |
| N[C@H]1CCCc2c1[nH]c1ccc(Cl)cc21 | L-type calcium channel dihydropyridine site | radioligand binding |  | 10 µM | 48.9 ± 7.3% |
| CCCCCCCCCCN1C(=O)/C(=N\NC(=N)N)c2cc(C)ccc21 | mrcB | enzyme activity, inhibitor, HPLC |  | 50 µM | 100% |
| COc1cc(OC)cc(O[C@@H]2O[C@H](CO)[C@H](O)[C@H](O)[C@H]2O)c1 | Adhesin FmlH lectin domain | binding to desialylated mucin, ELISA competition | UPEC UTI89 | 100 µM | 76% |
| CC(=O)c1cnc(N)nc1N1CC[C@H]1c1nn2ccc(Cl)c2c(=O)n1-c1ccccc1 | Kir3.1/Kir3.4 (Homo sapiens, UniProt P48544+P48549) | ion current, inhibitor |  | 3 µM | < 10% |
| Cc1cc(=O)oc2cc(O[C@@H]3O[C@H](CO)[C@H](O)[C@H](O)[C@H]3O)ccc12 | Adhesin FmlH lectin domain | binding to desialylated mucin, ELISA competition | UPEC UTI89 | 100 µM | 85% |
| CC(C)Cn1cc(-c2ccnc(Nc3ccc(C(=O)Nc4ccccc4N)cc3)n2)nn1 | CDK6 with cyclin D3 | enzyme activity, inhibitor, TR-FRET |  | 50 nM | 6.49% |

| SMILES | target | assay | system | setting | inhibition |
| --- | --- | --- | --- | --- | --- |
| CCCCN1C(=O)/C(=N\NC(=N)N)c2cc(C)ccc21 | mrcB | enzyme activity, inhibitor, HPLC |  | 50 µM | 4% |
| COc1ccccc1O[C@@H]1O[C@H](CO)[C@H](O)[C@H](O)[C@H]1O | Adhesin FmlH lectin domain | binding to desialylated mucin, ELISA competition | UPEC UTI89 | 100 µM | 97% |
| O=C(CCCCCCN1CCN(c2ccc(Nc3ncc(F)c(-c4cn(C5CCCC5)nn4)n3)cc2)CC1)NO | CDK6 with cyclin D3 | enzyme activity, inhibitor, TR-FRET |  | 5 µM | 70.1% |
| CC(=O)OCCc1ccc(O)c(O)c1 | alpha-glucosidase Saccharomyces cerevisiae |  |  | 1000 µM, with: sucrose | < 10% |
| C[C@@H](N)C1CCN(S(=O)(=O)c2cccc3c(=O)[nH]ccc23)CC1 | Rho-associated protein kinase 2 (ROCK2, Homo sapiens, UniProt O75116) | cell-free assay, competition with immobilised ligand |  | 10 µM | > 95% |
| OC[C@H]1O[C@@H](Oc2cccc3ccccc23)[C@H](O)[C@@H](O)[C@H]1O | Adhesin FmlH lectin domain | binding to desialylated mucin, ELISA competition | UPEC UTI89 | 100 µM | 46% |
| CC(C)C[C@H](NC(=O)[C@H](CCCNC(=N)N)NC(=O)CNC(=O)[C@H](CCC(=O)O)NC(=O)[C@@H]1CCCN1C(=O)[C@H](Cc1c[nH]cn1)NC(=O)[C@@H](NC(=O)[C@@H](N)C(C)C)C(C)C)C(=O)O | ACE | enzyme activity, inhibitor, HPLC |  | 1330 µg/mL | 53.3% |
| CC(C)Oc1cc(NC(=O)[C@H](Cc2ccccc2)NC(=O)c2ccc(N)c(OCc3ccccc3)c2)ccc1C(=O)NCC(=O)O | Eukaryotic translation initiation factor 4E, with eIF4G (EIF4E, Homo sapiens, UniProt P06730) | fluorescence anisotropy competition |  | concentration not given | no inhibition |
| N#Cc1ccc(O[C@@H]2O[C@H](CO)[C@H](O)[C@H](O)[C@H]2O)cc1 | Adhesin FmlH lectin domain | binding to desialylated mucin, ELISA competition | UPEC UTI89 | 100 µM | 86% |
| C[C@@H](N)C1CCN(S(=O)(=O)c2cccc3cnccc23)CC1 | Protein kinase C epsilon type (PRKCE, Homo sapiens, UniProt Q02156) | cell-free assay, competition with immobilised ligand |  | 10 µM | > 95% |
| Cc1ccc(O)c(C(=O)Nc2ccc(CN)cc2)c1 | Suppressor of tumorigenicity 14 protein (ST14, Homo sapiens, UniProt Q9Y5Y6) | enzyme activity, inhibitor |  | 10 µM | 0% |
| CC(C)Cn1cc(-c2ccnc(Nc3ccc(N4CCN(CCCCCCC(=O)NO)CC4)cc3)n2)nn1 | CDK6 with cyclin D3 | enzyme activity, inhibitor, TR-FRET |  | 5 µM | 63.4% |
| CCCCCCCCCCCN1C(=O)/C(=N\NC(=N)N)c2cc(C)ccc21 | mrcB | enzyme activity, inhibitor, HPLC |  | 50 µM | 100% |
| N#C/C(=C\c1ccc(O)c(O)c1)C(=O)c1ccc(O)c(O)c1 | Genome polyprotein, NS3 helicase domain (Hepatitis C virus genotype 1b, UniProt Q9WMX2) | DNA binding, fluorescence polarization |  | 100 µM, with: Cy5-dT15 DNA | > 60% |
| O=[N+]([O-])c1ccc(S[C@@H]2O[C@H](CO)[C@H](O)[C@H](O)[C@H]2O)cc1 | Adhesin FmlH lectin domain | binding to desialylated mucin, ELISA competition | UPEC UTI89 | 100 µM | 72% |
| CSCC[C@H](N)C(=O)N[C@@H](CC(C)C)C(=O)N[C@@H](Cc1ccccc1)C(=O)N[C@@H](CO)C(=O)NCC(=O)O | ACE | enzyme activity, inhibitor, HPLC |  | 530 µg/mL | 80.4% |
| COc1cc(C(=O)NC2CCC(N3CCN(CC4CCC5(CCCC5)C4)CC3)CC2)c(F)cc1Nc1ncc2c(n1)N(C1CCCC1(F)F)CC(F)(F)C(=O)N2C (centres unmarked) | Tyrosine-protein kinase ABL1 (ABL1, Homo sapiens, UniProt P00519) | cell-free assay, TR-FRET |  | 10 µM | 0.7% |

Repeated from above:
| SMILES | target | assay | system | setting | inhibition |
| --- | --- | --- | --- | --- | --- |
| N#C/C(=C\c1ccc(O)c(O)c1)C(=O)c1ccc(O)c(O)c1 | Genome polyprotein, NS3 helicase domain (Hepatitis C virus genotype 1b, UniProt Q9WMX2) | DNA binding, fluorescence polarization |  | 100 µM, with: Cy5-dT15 DNA | > 60% |
| CC(=O)c1cnc(N)nc1N1CC[C@H]1c1nn2ccc(Cl)c2c(=O)n1-c1ccccc1 | Kir3.1/Kir3.4 (Homo sapiens, UniProt P48544+P48549) | ion current, inhibitor |  | 3 µM | < 10% |
| CC(C)=CCN=C(N)NCCC[C@@H](NC(=O)CCCc1ccc(O)cc1)C(=O)N[C@@H](Cc1ccccc1)C(O)CC(=O)N[C@@H](Cc1ccc(O)cc1)C(=O)O (stereo in doubt) | elastase | enzyme activity |  | up to 100 µM | no inhibition |
